Measurements pooled from the literature.
Each numbered part is a random draw from the data of one study; scales do not carry over between parts.
Sequence of UniProt Q8NFD2 (whole entry, looked up): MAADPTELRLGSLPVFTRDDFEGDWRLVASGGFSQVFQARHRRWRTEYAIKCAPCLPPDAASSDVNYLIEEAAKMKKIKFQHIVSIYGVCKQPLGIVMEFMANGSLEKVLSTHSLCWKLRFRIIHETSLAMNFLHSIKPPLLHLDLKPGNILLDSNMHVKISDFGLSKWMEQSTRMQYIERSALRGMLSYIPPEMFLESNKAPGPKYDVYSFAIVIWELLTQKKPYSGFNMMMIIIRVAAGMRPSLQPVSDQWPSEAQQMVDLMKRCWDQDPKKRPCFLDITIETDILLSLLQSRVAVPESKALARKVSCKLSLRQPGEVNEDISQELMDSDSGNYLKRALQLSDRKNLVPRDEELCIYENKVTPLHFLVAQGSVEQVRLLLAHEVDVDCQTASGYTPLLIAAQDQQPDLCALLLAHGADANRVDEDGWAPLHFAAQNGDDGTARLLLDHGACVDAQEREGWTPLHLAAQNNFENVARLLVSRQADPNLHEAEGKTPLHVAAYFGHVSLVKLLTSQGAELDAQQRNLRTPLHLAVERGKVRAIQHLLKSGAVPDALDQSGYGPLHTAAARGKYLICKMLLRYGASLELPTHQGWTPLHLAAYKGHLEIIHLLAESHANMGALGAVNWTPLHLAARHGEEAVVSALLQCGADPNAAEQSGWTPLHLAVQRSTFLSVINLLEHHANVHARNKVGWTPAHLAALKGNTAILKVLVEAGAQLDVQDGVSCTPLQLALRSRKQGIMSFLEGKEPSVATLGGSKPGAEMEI
Sequence of UniProt O60285 (whole entry, looked up): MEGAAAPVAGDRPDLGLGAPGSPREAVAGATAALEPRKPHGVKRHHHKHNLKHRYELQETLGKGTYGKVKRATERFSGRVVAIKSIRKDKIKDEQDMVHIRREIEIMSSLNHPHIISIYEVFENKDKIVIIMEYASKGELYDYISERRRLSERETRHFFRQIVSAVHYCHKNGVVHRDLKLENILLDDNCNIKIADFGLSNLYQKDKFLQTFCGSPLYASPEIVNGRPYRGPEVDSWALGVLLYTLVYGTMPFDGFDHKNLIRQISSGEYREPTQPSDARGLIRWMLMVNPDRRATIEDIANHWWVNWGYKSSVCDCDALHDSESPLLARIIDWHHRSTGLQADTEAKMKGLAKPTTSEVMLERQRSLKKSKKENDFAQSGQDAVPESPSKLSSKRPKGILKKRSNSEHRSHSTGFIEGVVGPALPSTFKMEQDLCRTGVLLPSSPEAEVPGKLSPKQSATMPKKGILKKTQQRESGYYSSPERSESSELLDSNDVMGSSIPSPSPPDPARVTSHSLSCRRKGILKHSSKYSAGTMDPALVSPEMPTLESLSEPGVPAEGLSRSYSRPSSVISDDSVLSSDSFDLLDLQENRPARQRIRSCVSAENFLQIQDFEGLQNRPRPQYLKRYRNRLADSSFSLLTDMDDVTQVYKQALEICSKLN
Sequence of UniProt O43318 (whole entry, looked up): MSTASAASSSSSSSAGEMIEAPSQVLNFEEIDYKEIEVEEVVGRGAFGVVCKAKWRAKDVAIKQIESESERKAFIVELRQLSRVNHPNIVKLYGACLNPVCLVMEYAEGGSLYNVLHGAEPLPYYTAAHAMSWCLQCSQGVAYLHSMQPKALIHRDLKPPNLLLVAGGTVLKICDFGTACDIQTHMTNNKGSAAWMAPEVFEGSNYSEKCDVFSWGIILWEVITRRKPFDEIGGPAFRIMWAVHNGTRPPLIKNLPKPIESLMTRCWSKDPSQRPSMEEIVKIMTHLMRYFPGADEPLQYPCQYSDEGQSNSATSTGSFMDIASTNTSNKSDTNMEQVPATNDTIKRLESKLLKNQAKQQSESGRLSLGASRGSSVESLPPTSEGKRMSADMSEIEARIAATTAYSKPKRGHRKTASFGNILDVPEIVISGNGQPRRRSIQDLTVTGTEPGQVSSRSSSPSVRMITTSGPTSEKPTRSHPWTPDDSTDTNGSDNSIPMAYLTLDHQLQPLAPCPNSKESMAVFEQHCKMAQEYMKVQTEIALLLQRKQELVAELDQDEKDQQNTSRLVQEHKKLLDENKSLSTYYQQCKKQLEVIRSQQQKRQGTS
Sequence of UniProt P06493 (whole entry, looked up): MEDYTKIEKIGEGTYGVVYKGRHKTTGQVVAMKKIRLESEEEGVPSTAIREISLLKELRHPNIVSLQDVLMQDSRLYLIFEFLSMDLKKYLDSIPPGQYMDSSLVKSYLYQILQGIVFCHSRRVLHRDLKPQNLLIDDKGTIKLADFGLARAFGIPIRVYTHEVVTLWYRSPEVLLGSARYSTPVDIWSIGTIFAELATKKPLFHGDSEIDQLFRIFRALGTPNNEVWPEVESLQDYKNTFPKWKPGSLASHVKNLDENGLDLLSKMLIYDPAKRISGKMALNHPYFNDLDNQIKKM
Sequence of UniProt Q9H2X6 (whole entry, looked up): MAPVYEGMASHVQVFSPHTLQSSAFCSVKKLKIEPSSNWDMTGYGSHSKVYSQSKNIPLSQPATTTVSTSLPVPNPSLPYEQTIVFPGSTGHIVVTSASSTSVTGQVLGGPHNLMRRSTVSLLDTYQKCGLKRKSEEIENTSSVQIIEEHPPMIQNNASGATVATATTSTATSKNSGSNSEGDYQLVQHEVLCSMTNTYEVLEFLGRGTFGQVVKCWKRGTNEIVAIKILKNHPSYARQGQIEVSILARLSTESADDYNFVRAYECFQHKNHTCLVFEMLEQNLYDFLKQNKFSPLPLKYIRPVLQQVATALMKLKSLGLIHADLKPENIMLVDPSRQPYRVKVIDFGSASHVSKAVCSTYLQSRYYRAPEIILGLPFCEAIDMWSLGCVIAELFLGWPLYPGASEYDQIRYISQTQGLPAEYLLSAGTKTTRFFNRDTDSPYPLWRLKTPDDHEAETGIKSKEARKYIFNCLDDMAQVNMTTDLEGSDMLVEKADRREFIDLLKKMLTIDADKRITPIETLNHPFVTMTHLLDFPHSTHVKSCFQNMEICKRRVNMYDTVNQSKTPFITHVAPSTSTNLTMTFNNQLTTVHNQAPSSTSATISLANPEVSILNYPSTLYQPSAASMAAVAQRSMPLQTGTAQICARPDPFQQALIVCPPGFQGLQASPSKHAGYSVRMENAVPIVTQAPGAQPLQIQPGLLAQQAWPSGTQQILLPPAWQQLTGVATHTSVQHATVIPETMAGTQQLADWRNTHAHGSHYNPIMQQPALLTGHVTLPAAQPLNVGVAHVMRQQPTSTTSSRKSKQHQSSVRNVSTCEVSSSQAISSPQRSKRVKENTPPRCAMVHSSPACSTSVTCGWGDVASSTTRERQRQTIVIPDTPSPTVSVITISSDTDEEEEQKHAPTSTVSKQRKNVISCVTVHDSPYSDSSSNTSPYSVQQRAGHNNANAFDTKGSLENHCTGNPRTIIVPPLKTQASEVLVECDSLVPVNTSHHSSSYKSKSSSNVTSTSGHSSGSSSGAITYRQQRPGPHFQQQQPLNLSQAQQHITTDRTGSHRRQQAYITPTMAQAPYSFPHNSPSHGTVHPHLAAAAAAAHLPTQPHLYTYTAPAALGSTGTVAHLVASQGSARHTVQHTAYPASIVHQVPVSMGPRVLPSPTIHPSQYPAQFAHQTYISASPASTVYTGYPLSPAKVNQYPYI
Sequence of UniProt O14936 (whole entry, looked up): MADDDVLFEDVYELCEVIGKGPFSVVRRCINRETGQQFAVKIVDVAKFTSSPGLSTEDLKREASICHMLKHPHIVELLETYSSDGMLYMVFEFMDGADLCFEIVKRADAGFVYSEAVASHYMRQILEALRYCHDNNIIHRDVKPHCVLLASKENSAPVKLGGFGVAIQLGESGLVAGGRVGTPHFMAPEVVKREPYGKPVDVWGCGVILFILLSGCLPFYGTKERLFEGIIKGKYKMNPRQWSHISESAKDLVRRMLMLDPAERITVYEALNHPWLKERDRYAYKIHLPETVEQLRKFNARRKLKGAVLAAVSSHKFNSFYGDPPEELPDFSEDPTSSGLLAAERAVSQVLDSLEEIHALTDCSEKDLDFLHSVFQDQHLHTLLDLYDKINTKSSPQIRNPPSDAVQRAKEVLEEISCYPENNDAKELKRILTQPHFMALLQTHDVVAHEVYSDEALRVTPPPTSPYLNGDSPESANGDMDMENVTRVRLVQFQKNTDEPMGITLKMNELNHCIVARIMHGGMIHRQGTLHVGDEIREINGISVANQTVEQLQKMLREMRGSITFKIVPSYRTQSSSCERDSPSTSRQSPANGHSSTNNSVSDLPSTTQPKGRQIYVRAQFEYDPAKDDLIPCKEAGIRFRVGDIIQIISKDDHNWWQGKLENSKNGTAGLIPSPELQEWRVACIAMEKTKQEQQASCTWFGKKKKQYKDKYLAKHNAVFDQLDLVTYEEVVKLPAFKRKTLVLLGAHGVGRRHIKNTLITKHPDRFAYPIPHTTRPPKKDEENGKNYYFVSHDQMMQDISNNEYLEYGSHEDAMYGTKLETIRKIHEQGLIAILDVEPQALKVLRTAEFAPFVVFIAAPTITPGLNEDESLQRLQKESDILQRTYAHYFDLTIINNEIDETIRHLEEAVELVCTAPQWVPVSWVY
Sequence of UniProt O75716 (whole entry, looked up): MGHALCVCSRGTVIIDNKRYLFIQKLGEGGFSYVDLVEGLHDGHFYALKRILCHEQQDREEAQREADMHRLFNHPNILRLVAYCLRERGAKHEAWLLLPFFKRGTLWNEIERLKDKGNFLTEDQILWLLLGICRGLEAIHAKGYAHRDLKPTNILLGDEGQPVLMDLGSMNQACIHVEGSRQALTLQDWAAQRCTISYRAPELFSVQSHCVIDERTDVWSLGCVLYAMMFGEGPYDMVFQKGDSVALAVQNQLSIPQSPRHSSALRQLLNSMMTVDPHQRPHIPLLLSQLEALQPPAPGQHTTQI

Series 1
Structure (SMILES): O=C(N[C@H]1CCCCC/C=C\C2C[C@@]2(C(=O)O)NC(=O)[C@@H]2C[C@@H](Oc3ccncc3)CN2C1=O)OC1CCCC1 (stereo partly shown)
Method: competition with immobilised ligand
Concentration: 1 µM
| target | read-out | remaining binding |
| --- | --- | --- |
| Serine/threonine-protein kinase WNK1 (WNK1, Homo sapiens, UniProt Q9H4A3) | binding | 90% |
| Death-associated protein kinase 3 (DAPK3, Homo sapiens, UniProt O43293) | binding | 100% |
| Tyrosine-protein kinase ABL2 (ABL2, Homo sapiens, UniProt P42684) | binding | 100% |
| Activin receptor type-1B (ACVR1B, Homo sapiens, UniProt P36896) | cell-free assay | 100% |
| Calcium/calmodulin-dependent protein kinase type 1G (CAMK1G, Homo sapiens, UniProt Q96NX5) | binding | 76% |
| NUAK family SNF1-like kinase 1 (NUAK1, Homo sapiens, UniProt O60285) | binding | 99% |
| Bone morphogenetic protein receptor type-2 (BMPR2, Homo sapiens, UniProt Q13873) | cell-free assay | 100% |
| Bone morphogenetic protein receptor type-1B (BMPR1B, Homo sapiens, UniProt O00238) | cell-free assay | 95% |
| Serine/threonine-protein kinase VRK2 (VRK2, Homo sapiens, UniProt Q86Y07) | binding | 100% |
| Ankyrin repeat and protein kinase domain-containing protein 1 (ANKK1, Homo sapiens, UniProt Q8NFD2) | binding | 100% |
| Serine/threonine-protein kinase pim-3 (PIM3, Homo sapiens, UniProt Q86V86) | binding | 100% |
| Mitogen-activated protein kinase kinase kinase kinase 5 (MAP4K5, Homo sapiens, UniProt Q9Y4K4) | binding | 100% |
| RAF proto-oncogene serine/threonine-protein kinase (RAF1, Homo sapiens, UniProt P04049) | binding | 100% |
| Myosin light chain kinase family member 4 (MYLK4, Homo sapiens, UniProt Q86YV6) | cell-free assay | 100% |
| Peripheral plasma membrane protein CASK (CASK, Homo sapiens, UniProt O14936) | binding | 89% |
| Casein kinase II subunit alpha' (CSNK2A2, Homo sapiens, UniProt P19784) | cell-free assay | 100% |
| Dual specificity mitogen-activated protein kinase kinase 5 (MAP2K5, Homo sapiens, UniProt Q13163) | binding | 89% |
| Phosphatidylinositol 4,5-bisphosphate 3-kinase catalytic subunit alpha isoform (PIK3CA, Homo sapiens, UniProt P42336, I800L) | binding | 100% |
| Cyclin-dependent kinase-like 1 (CDKL1, Homo sapiens, UniProt Q00532) | binding | 100% |
| Mitogen-activated protein kinase kinase kinase 7 (MAP3K7, Homo sapiens, UniProt O43318) | binding | 77% |
| Mitogen-activated protein kinase kinase kinase 15 (MAP3K15, Homo sapiens, UniProt Q6ZN16) | binding | 68% |

Series 2
SMILES: CC(=O)N[C@@H](Cc1c[nH]c2ccccc12)C(=O)N[C@@H](CCC(=O)C=[N+]=[N-])C(=O)OC(C)C
Relative to: vehicle
| test | system | conditions | fold change |
| --- | --- | --- | --- |
| metabolomics, measured: ribulose/xylulose 5-phosphate | mouse, EL4 tumour | dose not given | 2.99 |
| measured: guanine | mouse, EL4 tumour-bearing, EL4 tumour | dose not given | 0.434 |
| measured: 2'-deoxyadenosine 5'-monophosphate | mouse, EL4 tumour, tumour | dose not given | 0.364 |
| measured: indolepropionate | mouse, EL4 tumour-bearing, EL4 tumour | dose not given | 2.16 |
| measured: adenine | mouse, EL4 tumour-bearing, EL4 tumour | dose not given | 0.174 |
| metabolomics, measured: thiamin monophosphate | mouse, EL4 tumour | subcutaneous, 0.3 mg/kg DON equivalent, 120 h, dosed for 5 days | 2.13 |
| measured: glucose | mouse, EL4 tumour-bearing, EL4 tumour | dose not given | 4.21 |

Series 3
Cell line: mouse MPNST tumor cells
Method: high-content immunofluorescence imaging
Measured: nuclear SOX9
Concentration: 10 µM
Time: 12 h
Setting: mean of 2 replicates
Relative to: DMSO control
Reading: higher = more nuclear SOX9
| SMILES | nuclear SOX9 intensity |
| --- | --- |
| CCCNC(=O)NS(=O)(=O)c1ccc(Cl)cc1 | 94.6 % of DMSO |
| CC(=O)SCC(Cc1ccccc1)C(=O)NCC(=O)OCc1ccccc1 (stereo not shown) | 104 % of DMSO |
| NC[C@@H]1O[C@H](O[C@H]2[C@@H](O)[C@H](O[C@@H]3[C@@H](O)[C@H](N)C[C@H](N)[C@H]3O[C@H]3O[C@H](CN)[C@@H](O)[C@H](O)[C@H]3N)O[C@@H]2CO)[C@H](N)[C@@H](O)[C@@H]1O | 99 % of DMSO |
| Cc1cccc2c1CC[C@H](CN1CCC(c3c(Cl)cccc3Cl)CC1)C[C@@H]2O | 182 % of DMSO |
| N#Cc1cccc(C(=O)Nc2cc(-c3ccccc3)nn2-c2ccccc2)c1 | 117 % of DMSO |
| CC(C)(C)NCC(O)COc1cccc2c1CCC(=O)N2 (stereo not shown) | 94.7 % of DMSO |
| CN(C)CCCO[C@@H]1[C@H]2OC(C)(C)O[C@H]2O[C@@H]1[C@H](O)CO | 78.7 % of DMSO |

Series 4
Structure (SMILES): O=c1cc(N2CCOCC2)oc2c1ccc1ccccc12
Read-out: enzyme activity
Mode: inhibitor
Concentration: 0.5 µM
Relative to: control
| target | remaining activity |
| --- | --- |
| Cyclin-dependent kinase 4, with cyclin D3 (CDK4, Homo sapiens, UniProt P11802) | 96.8% |
| 3-phosphoinositide-dependent protein kinase 1 (PDPK1, Homo sapiens, UniProt O15530) | 109% |
| Testis-specific serine/threonine-protein kinase 2 (TSSK2, Homo sapiens, UniProt Q96PF2) | 100% |
| Ribosomal protein S6 kinase alpha-6 (RPS6KA6, Homo sapiens, UniProt Q9UK32) | 95.4% |
| Serine/threonine-protein kinase 16 (STK16, Homo sapiens, UniProt O75716) | 99% |
| MAP kinase-activated protein kinase 3 (MAPKAPK3, Homo sapiens, UniProt Q16644) | 105% |
| Tyrosine-protein kinase receptor UFO (AXL, Homo sapiens, UniProt P30530) | 98.1% |
| Cyclin-dependent kinase 1, with cyclin B (CDK1, Homo sapiens, UniProt P06493) | 85.5% |
| Tyrosine-protein kinase Srms (SRMS, Homo sapiens, UniProt Q9H3Y6) | 97.1% |
| Ephrin type-B receptor 1 (EPHB1, Homo sapiens, UniProt P54762) | 104% |
| Tyrosine-protein kinase Blk (BLK, Homo sapiens, UniProt P51451) | 104% |
| Ephrin type-B receptor 4 (EPHB4, Homo sapiens, UniProt P54760) | 96.3% |
| Serine/threonine-protein kinase WNK3 (WNK3, Homo sapiens, UniProt Q9BYP7) | 97.5% |
| Cyclin-dependent kinase 6, with cyclin D3 (CDK6, Homo sapiens, UniProt Q00534) | 95.1% |
| Mitogen-activated protein kinase kinase kinase kinase 4 (MAP4K4, Homo sapiens, UniProt O95819) | 89.3% |
| Phosphorylase b kinase gamma catalytic chain, skeletal muscle/heart isoform (PHKG1, Homo sapiens, UniProt Q16816) | 98.2% |
| Serine/threonine-protein kinase 17A (STK17A, Homo sapiens, UniProt Q9UEE5) | 94.6% |
| Calcium/calmodulin-dependent protein kinase type II subunit beta (CAMK2B, Homo sapiens, UniProt Q13554) | 98.1% |
| Homeodomain-interacting protein kinase 4 (HIPK4, Homo sapiens, UniProt Q8NE63) | 101% |
| Ribosomal protein S6 kinase alpha-5 (RPS6KA5, Homo sapiens, UniProt O75582) | 103% |
| Tyrosine-protein kinase ABL1 (ABL1, Homo sapiens, UniProt P00519) | 104% |
| Dual specificity tyrosine-phosphorylation-regulated kinase 3 (DYRK3, Homo sapiens, UniProt O43781) | 96% |
| Homeodomain-interacting protein kinase 2 (HIPK2, Homo sapiens, UniProt Q9H2X6) | 105% |

Excerpt of the above (series 1):
| target | read-out | remaining binding |
| --- | --- | --- |
| Mitogen-activated protein kinase kinase kinase kinase 5 (MAP4K5, Homo sapiens, UniProt Q9Y4K4) | binding | 100% |
| RAF proto-oncogene serine/threonine-protein kinase (RAF1, Homo sapiens, UniProt P04049) | binding | 100% |
| Myosin light chain kinase family member 4 (MYLK4, Homo sapiens, UniProt Q86YV6) | cell-free assay | 100% |
| Peripheral plasma membrane protein CASK (CASK, Homo sapiens, UniProt O14936) | binding | 89% |
| Casein kinase II subunit alpha' (CSNK2A2, Homo sapiens, UniProt P19784) | cell-free assay | 100% |
| Dual specificity mitogen-activated protein kinase kinase 5 (MAP2K5, Homo sapiens, UniProt Q13163) | binding | 89% |
| Phosphatidylinositol 4,5-bisphosphate 3-kinase catalytic subunit alpha isoform (PIK3CA, Homo sapiens, UniProt P42336, I800L) | binding | 100% |
| Cyclin-dependent kinase-like 1 (CDKL1, Homo sapiens, UniProt Q00532) | binding | 100% |
| Mitogen-activated protein kinase kinase kinase 7 (MAP3K7, Homo sapiens, UniProt O43318) | binding | 77% |
| Mitogen-activated protein kinase kinase kinase 15 (MAP3K15, Homo sapiens, UniProt Q6ZN16) | binding | 68% |
